Measurements pooled from the literature.
Each numbered part is a random draw from the data of one study; scales do not carry over between parts. Changes are numbered by the printed parent chain.

Series 1 — method: DHFR PCA, deep sequencing; sample: yeast; together with: (+)-ABA 0.032 µM; baseline: wild-type fitted maximum; reading: higher = stronger binding
Target: ABI1, truncated, D143A, DHFR fusion (Arabidopsis thaliana)
Notes: methotrexate growth selection, single substitutions
Parent: PYL1, truncated, DHFR fusion (Arabidopsis thaliana); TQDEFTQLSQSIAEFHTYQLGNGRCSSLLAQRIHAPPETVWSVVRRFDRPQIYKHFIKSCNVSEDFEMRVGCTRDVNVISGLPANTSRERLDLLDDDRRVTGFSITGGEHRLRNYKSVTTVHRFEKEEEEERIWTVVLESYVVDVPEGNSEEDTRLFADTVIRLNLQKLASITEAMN
Variant | relative binding score [%]
L93W | -3.27
I52Q | 16.7
R163A | 18.1
T1P | 23.3
H16L | -1.23
V143M | -3.55
I57K | -0.927
E64W | -0.434
R113N | 13.7
W134E | 34.1
K126N | 59.7
A175S | 19.2
Y115E | -3.36
V43P | -1.44
I79Q | 13.2
Q19G | 10.5
V145Q | -6.71
K168N | 48.7
S42C | 6.66
V44D | 1.13
S80P | -3.29
R111P | 24.5

Series 2 — target: CCND2, cyclin fold, Cln2 fusion (human); method: yeast growth competition, sequencing; sample: yeast; notes: weak parent motif; baseline: not given; reading: higher = stronger binding
Parent: MASTL docking peptide (human); PMIAKNLMCELDE; partner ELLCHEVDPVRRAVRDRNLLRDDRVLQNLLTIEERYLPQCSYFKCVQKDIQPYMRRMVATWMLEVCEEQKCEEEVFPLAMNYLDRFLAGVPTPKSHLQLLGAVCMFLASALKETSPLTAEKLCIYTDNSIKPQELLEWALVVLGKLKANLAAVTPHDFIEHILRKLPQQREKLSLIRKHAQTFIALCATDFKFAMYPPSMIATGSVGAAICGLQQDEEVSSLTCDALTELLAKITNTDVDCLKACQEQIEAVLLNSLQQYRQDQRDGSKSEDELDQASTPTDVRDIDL
Variant | normalised enrichment score
M8V | 0.234
L7R | -0.00349
M8I | 0.0082
N6E | 0.0334
C9V | 0.265
I3C | 0.156
I3F | 0.000169
E10Q | 0.367
M8D | -0.0899
C9N | -0.267
N6R | 0.0712
K5V | -0.112
L7N | 0.0196
K5W | 0.215
C9M | -0.0826
N6C | 0.459
L11F | -0.265
I3P | -0.162
E10T | -0.188
D12C | 0.239
C9T | 0.0779
A4W | 0.344
A4S | -0.0797
L11Y | -0.0791
L11P | 0.078

Series 3 — method: RNA Bind-n-Seq; molecule type: RNA; sample: in vitro; concentration: not given; baseline: input RNA pool; reading: higher = stronger binding
Target: RING finger protein unkempt homolog, zinc fingers 1-6, GST-SBP tag (UNK, Homo sapiens, UniProt Q9C0B0, residues 30-357)
Notes: RNA with constant flanks, human and mouse sites, ends assumed
Shared flanks, not repeated: GGGAGUUCUACAGUCCGACGAUC … CAACAGAGGAUUGAGCAUCA
Target sequence (chain): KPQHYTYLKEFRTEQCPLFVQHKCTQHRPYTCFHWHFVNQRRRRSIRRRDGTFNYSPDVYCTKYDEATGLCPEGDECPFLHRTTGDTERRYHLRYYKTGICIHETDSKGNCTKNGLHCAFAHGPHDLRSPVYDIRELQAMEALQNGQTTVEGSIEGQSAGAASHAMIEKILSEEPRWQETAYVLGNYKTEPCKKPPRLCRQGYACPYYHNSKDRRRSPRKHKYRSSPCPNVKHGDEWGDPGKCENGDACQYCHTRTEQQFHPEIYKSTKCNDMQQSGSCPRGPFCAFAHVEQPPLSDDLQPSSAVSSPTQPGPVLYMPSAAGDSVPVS
Oligonucleotide | bound/input enrichment [ratio]
CUGACUGCAAAUAUCCAGGAUCUUAAGGAAGAAUAUUCUAGGAAGAAGGAAACUAUUUCUACUGCUAAUAAAGCGAAUGCAGAGAGGUUGAAAAGGCUGCAGAAAUCUGCAGACUUGUAU | 0.368
AGGUUUCCGGUUCCGGUGUAACGUUCGGGCUCCGUCUCAGGGGCUGAAGUUUGUGAGGUGUAGUUUUUUUGUCCCAUUGGAGCUCUCAUUCUCCAUUUUCUCCGAAAUGGCGCUGUCUAA | 0.452
AGGUUAACUCUGAGAGCUAUCAAACUAUGGGCCAAACGCCACAACAUCUAUUCCAAUAUAUUAGGUUUCCUCGGUGGUGUUUCCUGGGCUAUGCUAGUAGCAAGAACUUGCCAGCUUUAU | 0.699
CGGAUCCAUUGCAGUAAAUCCUCAGUCAGGAGCAGGAGAAGCAGCCCUAAGAGAAAGCGUAAUAGACCCUGUGCAAGUCAUCAGUCGCAUUCGGUAUGAGUGGUUUGUUUUUAUUUGGAA | 0.232
GUUCUGUGUAACUUCAAUGCUUUGUGCUAAGUCAAGAGGAACAAAUAUGUUGCUAUUCUGGUUAAUUUAUCCUAAAAACUGUUAAGUCACCAACACAGAAAUACUGAAUAUAACCAAAGC | 0.0735
AUAAAGGCUAUGUUGAGUGGUCCAGGUCAGUUUGCUGAGAAUGAAACCAACGAGGUCAAUUUUAGAGAGAUCCCCUCACAUGUGCUAUCAAAAGUGUGCAUGUAUUUUACCUACAAGGUC | 0.174
AGAAUGCUCUCUGGGAGGACUUCCACCGGGGCAGAGCAGGCUGCCCAGCCGAAGCGGGAAGGGCAUGUUGGGCAAGCUGCUGGAGCGACUGAUGUACAGUUGUUAUUUGUCUAUAAAUGG | 0.169
UGGUAUGGCCUCGGGCAGACCUAUGAAAUCCUUAAGAUGCCAUUUUACUGCCUUUAUUAUUAUAGACGGGCCCACCAGCUUCGACCCAAUGAUUCUCGCAUGCUGGUUGCUUUAGGAGAA | 0.781
GAUGCUGGGCAGUUUUAUGCAAAAUAUAAGGAGACAAAAUUGAAGGAAAAAGAAGACGCACUGGCUAGAAUUGAAAUUGAAACCCUUCAAAAACAGAAGAAAGUUAAAGUUAAAAAACCA | 0.912
UUUUAAACUUCUUUUUUUUAAUUUAAUUUUUUCCUUUCAGGGGUAAAGUUUGCUUUACCAAAUAGUGAUUGUAACAGAUUGAUCUGUUUUGGAUGUUGCUAUAGUGACAUGCAGUUCUAU | 24.7
UAUGACUGCUUAGCAAUGGCAGUUGAGACUGGUCUCCUUCCACCCAGGAUGGUUUGUGAAUCUUUGAUAAACUCUGACUCUCUUGAAUGGGAAAGAACACAGCUUUGGGCCUUAACAUUU | 0.216

Series 4 — method: RNA Bind-n-Seq; molecule type: RNA; sample: in vitro; concentration: 200 nM; notes: whole 134-nt RNA, ends assumed; together with: 150 mM LiCl; baseline: input library; reading: higher = stronger binding; all molecules: 7-deaza-guanosine replaces G
Target: Fragile X messenger ribonucleoprotein 1, C-terminal low-complexity region (Fmr1, Mus musculus, UniProt P35922)
Shared flanks, not repeated: GGGAGUUCUACAGUCCGACGAUC … UGGAAUUCUCGGGUGUCAAGG
Oligonucleotide | log2 enrichment
AGUCCUGUGCUACACAUCGUAUGUACCGAAUCGGGUUUUUGGGAAAAAAAGGGUGGGAAAGUAUUAUGUUACGCCGUUCGGAUCUGCACU | -2.56
GAAAUCCACAGGAAAGUGAUGUCACAAAACUUCACCAACUGCCACACCAAGAUUCGCCAUGUUGAUGCUCAUGCCACGCUAAAUGAUGGU | 0.961
GCAGGAAGUAAACACAAAUGGAAAUGCUUCGGAUAGUGGCAGGGGUGGGGGUUGCUAAGGAAAGGGUGGGAUGGGAGUGGGUAAAGAGUU | 1.56
UCCUGUGCUACACAUCGUAUGUACCGAAUCGGAAAAAAGGGGAAAAAAGGAAAAAAGGGGAAAGUAUUAUGUUACGCCGUUCGGAUCUGC | -0.67
CCUGUGCUACACAUCGUAUGUACCGAAUCGGGAAAAAAAGGGAAAAAAAGGGAAAAAGGGAAAGUAUUAUGUUACGCCGUUCGGAUCUGC | -0.928
GUCAAGAAAGAUCUUAAGACUGGUCAUUCAAAGGGGUUUGGCUUUGUUCGUUUUACGGAAUAUGAAACACAAGUGAAAGUAAUGUCACAG | -2.12
CAAGUCCUGUGCUACACAUCGUAUGUACCGAAUCGGAAAGGUUUUUGGAAAAAGGAAAGUAUUAUGUUACGCCGUUCGGAUCUGCACUUC | -1.19
CCUGUGCUACACAUCGUAUGUACCGAAUCGGGAAAAAAAGGAAAAAAAGGAAAAAAAGGGAAAGUAUUAUGUUACGCCGUUCGGAUCUGC | -0.627
UCCUGUGCUACACAUCGUAUGUACCGAAUCGGGGUUUUUGGGGUUUUUGGGGAAAGGGGAAAGUAUUAUGUUACGCCGUUCGGAUCUGCA | -0.711
AGUCCUGUGCUACACAUCGUAUGUACCGAAUCAAAGUGUGUGUGUGUGUGUGUGUAAAAAAGUAUUAUGUUACGCCGUUCGGAUCUGCAC | -0.89
AAGUCCUGUGCUACACAUCGUAUGUACCGAAUCGGGAAAGGGAAAAAAAGGGUGGGAAAGUAUUAUGUUACGCCGUUCGGAUCUGCACUU | -0.901

Single results of other studies
Substance | target | test | test system | conditions | how to read | quantity | result
PhoQ, residues 284 288 289 292 302 303 DDMDFR | PhoP, residues 12 14 15 18 19 SMASL (Escherichia coli, UniProt P23836) | Sort-seq, measured: YFP reporter | E. coli | PhoQ-PhoP variant library, together with: 10 µM Mg2+ | baseline: high Mg2+ state, higher = stronger signaling | fold induction | 0.784
